{"data": "Results from different studies", "note": "Each numbered part is a random draw from the data of one study; scales do not carry over between parts."}
{"data": "Block 1", "target": "RNA binding protein fox-1 homolog 2, RRM domain, GST-SBP tag (RBFOX2, Homo sapiens, UniProt O43251-10, residues 100-194)", "method": "RNA Bind-n-Seq", "form": "RNA", "matrix": "in vitro", "concentration": "365 nM", "setting": "natural RNA segment, single round, ends assumed", "relative to": "no-protein control", "reading": "higher = stronger binding", "constant ends, left off below": "GGGAGUUCUACAGUCCGACGAUC … UGGAAUUCUCGGGUGCCAA", "Construct (chain)": "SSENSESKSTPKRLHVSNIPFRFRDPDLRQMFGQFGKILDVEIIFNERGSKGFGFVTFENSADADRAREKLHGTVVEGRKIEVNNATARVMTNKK"}
{"Strand": "UACUCAAGUCUCUUGGGUAGAGAUCUGGAAGCCUGCAGGAGAGGAGGGGUACUUGUUUUCAUUGGAAAACUUUUAUGAUUAAGGGACUCUUUACAAACUGGCAUCUUAAG", "RBNS enrichment (R)": 0.665}
{"Strand": "UUUCUGCACAGGUUUAGGUGAGUAGACCACAUGCCCUAUGAGGCAAGCACCGAGCAAACCCUAGGGUGUGCCUCACCUGCGAUGCUGUGGGCAAACACUUCUCAGCUGGU", "RBNS enrichment (R)": 0.312}
{"Strand": "UAUUACCCAGUAACAUUGAAUGUAGAUGGCUAAACGAUUCUUACUCAGUGUGAUGUAUAAUGAUGCAACAGGGACCCUUGUAAAUUGUCAUACGCCAAUAAAAUGUCACA", "RBNS enrichment (R)": 0.246}
{"Strand": "AAACGGAGACAUUGACCCCUCCCUCCAUGUGGUAAACCACUCCAGAAUGGCCACCAGGCUUCCCAGAGUUCUAUGGUCUUCUUCCCAAGAGAGUUUUUAAUUGUAAAUGC", "RBNS enrichment (R)": 0.401}
{"Strand": "AAGGUCCCUUUCUGGCUUCUUGGUUCUCCAUGUGACCAAAGCCCAGUGUGGCUUCAUGGGAGCCCUGUUACUUCUCCAUGAAACCCCAGCUCUCUAGGCCUGACUGCCAC", "RBNS enrichment (R)": 0.208}
{"Strand": "GAGGCACAGAGAAGAGGGAGACAGGUCCAGAGAGGGAUGGGGCCUCCACCAAGACCAUAUAGACCAUCUGGCGGGCUCAAGCCGGGGCUUUUUCCUCUCCAGUCCAAAAC", "RBNS enrichment (R)": 0.439}
{"Strand": "UGCCUCAGAAGCUGGCUGGGGACUCUAGCCUCUGUGUUCAUAAAGACAUUAAGAAGUGGAUGGAUGUUGUUCCUUUUUUGAAGUUGUCAUUAAAGUAGGUGCAACAACCA", "RBNS enrichment (R)": 0.263}
{"Strand": "ACAGCAGCAAGUGCCCUUCUCCGGCCUGCAGCCUCCCCCAGGGUGGAAGCCGUGGGGUCCCUCAGGCCUGGGCGGUGCAGCUUCCAGAGAGCGAGCGCCCUUUAGCGGCC", "RBNS enrichment (R)": 0.157}
{"data": "Block 2", "target": "Fragile X messenger ribonucleoprotein 1, C-terminal low-complexity region (Fmr1, Mus musculus, UniProt P35922)", "method": "RNA Bind-n-Seq", "form": "RNA", "matrix": "in vitro", "concentration": "200 nM", "setting": "whole 134-nt RNA, ends assumed", "with": "150 mM LiCl", "relative to": "input library", "reading": "higher = stronger binding", "library": "7-deaza-guanosine replaces G", "constant ends, left off below": "GGGAGUUCUACAGUCCGACGAUC … UGGAAUUCUCGGGUGUCAAGG"}
{"Strand": "UCAAGUCCUGUGCUACACAUCGUAUGUACCGAAUCGGGAAGGGAAGGGGAAGGGGAAAGUAUUAUGUUACGCCGUUCGGAUCUGCACUUC", "log2 enrichment": -0.544}
{"Strand": "UAACUUUAGUGGAGGAUCUGAUGGAUAUGGCAGUGGACGUGGAUUUGGGGAUGGCUAUAAUGGGUAUGGAGGAGGACCUGGAGGUGGCAA", "log2 enrichment": 0.32}
{"Strand": "UCAAGUCCUGUGCUACACAUCGUAUGUACCGAAUCGGGGUGGGGAGGGGAGGGGAAAGUAUUAUGUUACGCCGUUCGGAUCUGCACUUCC", "log2 enrichment": -0.227}
{"Strand": "CAAGUCCUGUGCUACACAUCGUAUGUACCGAAUCGGGAGGGUGGGAAAAAAAGGGAAAGUAUUAUGUUACGCCGUUCGGAUCUGCACUUC", "log2 enrichment": -0.215}
{"Strand": "UCAAGUCCUGUGCUACACAUCGUAUGUACCGAAUCGGGUUUGGGAGGGUUUGGGAAAGUAUUAUGUUACGCCGUUCGGAUCUGCACUUCC", "log2 enrichment": -0.624}
{"Strand": "UCCUGUGCUACACAUCGUAUGUACCGAAUCGGCCCCCCGGGCCCCCCGGGCCCCCCGGGGAAAGUAUUAUGUUACGCCGUUCGGAUCUGC", "log2 enrichment": -2.2}
{"Strand": "AGUCCUGUGCUACACAUCGUAUGUACCGAAUCGGGGUUUUGGGGUUUUGGUUUUGGGAAAGUAUUAUGUUACGCCGUUCGGAUCUGCACU", "log2 enrichment": -2.35}
{"Strand": "UCAAGUCCUGUGCUACACAUCGUAUGUACCGAAUCGGGAGGGAGGGUUUUUGGGAAAGUAUUAUGUUACGCCGUUCGGAUCUGCACUUCC", "log2 enrichment": -0.684}
{"data": "Block 3", "target": "Eukaryotic initiation factor 4A-I (EIF4A1, Homo sapiens, UniProt P60842, residues 1-406, full length assumed)", "method": "RNA Bind-n-Seq", "form": "RNA", "matrix": "in vitro", "concentration": "not given", "setting": "4-mer, random 30-nt RNA, single round", "with": "RocA, ADP, phosphate", "relative to": "input library", "reading": "higher = stronger binding", "chain of UniProt P60842 (whole entry, looked up)": "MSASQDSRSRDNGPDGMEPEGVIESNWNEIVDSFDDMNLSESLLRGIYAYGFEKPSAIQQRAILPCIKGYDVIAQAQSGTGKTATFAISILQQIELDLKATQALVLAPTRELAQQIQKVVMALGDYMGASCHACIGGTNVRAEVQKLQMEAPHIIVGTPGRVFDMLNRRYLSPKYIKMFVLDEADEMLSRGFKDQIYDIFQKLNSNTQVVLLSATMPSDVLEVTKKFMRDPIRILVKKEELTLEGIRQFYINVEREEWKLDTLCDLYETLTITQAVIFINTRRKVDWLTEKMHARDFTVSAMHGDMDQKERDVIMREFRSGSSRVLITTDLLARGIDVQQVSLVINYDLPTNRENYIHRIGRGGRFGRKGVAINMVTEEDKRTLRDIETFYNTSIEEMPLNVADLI"}
{"Strand": "ACCC", "4-mer enrichment": "0.64 fold"}
{"Strand": "CGAC", "4-mer enrichment": "0.621 fold"}
{"Strand": "UAUA", "4-mer enrichment": "0.937 fold"}
{"Strand": "UGUU", "4-mer enrichment": "0.963 fold"}
{"Strand": "UAUU", "4-mer enrichment": "0.915 fold"}
{"Strand": "CCGG", "4-mer enrichment": "0.716 fold"}
{"Strand": "AUGC", "4-mer enrichment": "0.701 fold"}
{"Strand": "ACGU", "4-mer enrichment": "0.723 fold"}
{"Strand": "AUUC", "4-mer enrichment": "0.605 fold"}
{"Strand": "UAGC", "4-mer enrichment": "0.726 fold"}
{"Strand": "CAAU", "4-mer enrichment": "0.729 fold"}
{"data": "Block 4", "target": "Histone acetyltransferase KAT6A, winged helix 1, GST fusion (KAT6A, Homo sapiens, UniProt Q92794, residues 1-85)", "method": "protein binding microarray", "form": "double-stranded DNA, one strand shown", "matrix": "in vitro", "concentration": "not given", "setting": "8-mer, flanks averaged, mean of 2 arrays, mostly near background", "relative to": "not given", "reading": "higher = stronger binding", "Target sequence (chain)": "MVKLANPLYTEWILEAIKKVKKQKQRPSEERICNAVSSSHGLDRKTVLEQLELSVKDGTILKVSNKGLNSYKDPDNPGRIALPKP"}
{"Strand": "GACCTGGA", "E-score": -0.152}
{"Strand": "CAGGAAGA", "E-score": 0.00379}
{"Strand": "CAGGCCTC", "E-score": 0.0362}
{"Strand": "CCGGGCTA", "E-score": 0.242}
{"Strand": "ATGTGCCG", "E-score": 0.161}
{"Strand": "CCACACAC", "E-score": -0.0886}
{"Strand": "AAAATATC", "E-score": -0.127}
{"Strand": "AAGGGTCT", "E-score": -0.03}
{"Strand": "ACTGCAAT", "E-score": -0.139}
{"Strand": "GAGTACCA", "E-score": -0.259}
{"Strand": "GCATAGGC", "E-score": -0.0715}
{"Strand": "GGTAGGAA", "E-score": -0.142}
{"Strand": "GGTTCGAA", "E-score": -0.11}
{"Strand": "CAAATAAA", "E-score": -0.212}
{"Strand": "AGCATAAA", "E-score": -0.118}
{"Strand": "TGTGAACA", "E-score": -0.149}
{"note": "Excerpt of the above (block 2):"}
{"Strand": "AGUCCUGUGCUACACAUCGUAUGUACCGAAUCGGGGUUUUGGGGUUUUGGUUUUGGGAAAGUAUUAUGUUACGCCGUUCGGAUCUGCACU", "log2 enrichment": -2.35}
{"Strand": "UCAAGUCCUGUGCUACACAUCGUAUGUACCGAAUCGGGAGGGAGGGUUUUUGGGAAAGUAUUAUGUUACGCCGUUCGGAUCUGCACUUCC", "log2 enrichment": -0.684}
{"Strand": "UAACUUUAGUGGAGGAUCUGAUGGAUAUGGCAGUGGACGUGGAUUUGGGGAUGGCUAUAAUGGGUAUGGAGGAGGACCUGGAGGUGGCAA", "log2 enrichment": 0.32}
{"Strand": "UCAAGUCCUGUGCUACACAUCGUAUGUACCGAAUCGGGAAGGGAAGGGGAAGGGGAAAGUAUUAUGUUACGCCGUUCGGAUCUGCACUUC", "log2 enrichment": -0.544}
{"Strand": "UCCUGUGCUACACAUCGUAUGUACCGAAUCGGCCCCCCGGGCCCCCCGGGCCCCCCGGGGAAAGUAUUAUGUUACGCCGUUCGGAUCUGC", "log2 enrichment": -2.2}
